Experimental data from different studies.
± marks the error that the study gave.

Sequences of proteins named here, by UniProt entry; tags and fusion partners are left off. Residues count along the entry.
UniProt P45983, 1-384 isoform 3: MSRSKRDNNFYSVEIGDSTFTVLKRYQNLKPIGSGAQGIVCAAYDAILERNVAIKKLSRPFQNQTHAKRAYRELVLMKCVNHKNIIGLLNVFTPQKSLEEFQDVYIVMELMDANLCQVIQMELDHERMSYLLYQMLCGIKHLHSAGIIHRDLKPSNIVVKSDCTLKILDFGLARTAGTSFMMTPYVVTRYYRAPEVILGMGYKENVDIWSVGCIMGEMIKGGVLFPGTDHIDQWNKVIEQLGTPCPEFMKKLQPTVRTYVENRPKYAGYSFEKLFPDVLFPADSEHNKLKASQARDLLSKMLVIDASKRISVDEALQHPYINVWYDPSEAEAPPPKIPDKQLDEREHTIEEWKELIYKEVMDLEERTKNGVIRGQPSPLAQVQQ

Compound	target or system	test	system	conditions	scale	quantity	result
C=CC(=O)N1CCC(c2cc(Nc3cc4n(n3)CCOC4)c3ncnn3c2)C1 (single isomer, unassigned)	TMD8 wild type	calcium flux, FLIPR		4 h preincubation, added: anti-IgM		IC50	> 1000 nM
CC(=O)OC1CC[C@H]2C3=C(CC[C@]12C)[C@]1(C)c2c(coc2C3=O)[C@H](OC(C)=O)[C@@H]2O[C@@H]21 (some centres unmarked)	MDA-MB-231	DCFH-DA fluorescence		50 µM	reference: untreated	ROS level	3 fold
Nc1ccc2cc(N)ncc2c1	LX-2	western blot, measured: collagen I		concentration not given, added: TGF-β1		protein level	decreased
CC(=NN=c1[nH]c2cc(F)c(F)cc2n1C)c1ccc(F)cn1	LM2	cell migration area		50 nM, two days	reference: untreated	inhibition	~50%
CCCCCCCCCCCCCC[C@@H](O)[C@@H](O)[C@H](CO[C@H]1O[C@H](CO)[C@H](O)[C@H](O)[C@H]1O)NC(=O)CCCCCc1ccccc1	human Vα24+ NKT cells	agonist, ELISA		10 ng/mL, 24 h, unit not given, added: CD1d-transfected HeLa cells	reference: α-GalCer	IL-4 secretion	0.73 ± 0.16
COC(=O)[C@@]1(C)C=C(C(=O)Nc2cccc(C(=O)NC34CC(Nc5nccc(-c6cccnc6)n5)(C3)C4)c2)C(=O)CC1	MAPK8 (Homo sapiens, UniProt P45983)	kinase activity, inhibitor		2.788e-05 µM, added: 10 mM GSH		remaining activity	1.02 fraction of control
CCN1CCN(Cc2ccc(Nc3ncc4c(n3)Sc3ccccc3C(=O)N4C)cc2C(F)(F)F)CC1	HCT-116	cell growth, CellTiter-Glo		96 h		EC50	7260 nM
CC(=O)N1CCN(c2ccc(Nc3ncc4c(n3)N(C)C(=O)N(c3cc(NC(=O)c5ccc(CN6CCC(N(C)C)C6)c(C(F)(F)F)c5)ccc3C)C4)cn2)CC1 (centres unmarked)	Hep3B (FGFR4 overexpressing)	cell proliferation, CellTiter-Glo		72 h		GI50	8 nM
C=CC(=O)Nc1cccc(N(C(=O)OCc2ccc(F)cc2)c2ccnc(Nc3ccn(C)n3)n2)c1	Ba/F3 EGFR insGY	cell growth			above 10 µM not active	EC50	30 nM
Cc1ccc(NC(=O)c2cccc(C(F)(F)F)c2)cc1N1Cc2cnc(Nc3cnn(C)c3)nc2N(C)C1=O	HepG2 (FGFR4 overexpressing)	cell proliferation, CellTiter-Glo		72 h		GI50	397 ± 220 nM
O=C(N/N=C/c1ccc(Sc2ccccn2)s1)c1cccc(Oc2ccccc2)c1	D458 medulloblastoma	cell growth				GI50	13300 nM
COC(=O)[C@@H]1C(c2nc3cc(C(F)(F)F)ccc3s2)=Cc2cc3c(cc2[C@H]1c1cc(OC)c(OC)c(OC)c1)OCO3	Leishmania infantum	iRFP fluorescence	mouse splenocytes infected, amastigote, iRFP, ex vivo splenic explant	48 h		EC50	42300 ± 3100 nM
CN(C)C(=O)Cn1cc(-c2ccc(-c3cncc4ccncc34)cc2)cn1	HL-60 with human NK cells	ADCC, chromium-51 release		concentration not given, added: CD33 antibody BI 836858	reference: vehicle-treated NK cells	increase in lysis	25 to 75%
Cc1ccccc1OCCCSCc1nc2ccccc2[nH]1	SW620-GFP+ organoids	reporter gene, activator, measured: E-cadherin RFP reporter			reference: untreated	EC 2-fold increase	35.4 µM
CCN1CCN(c2ccc(Nc3ncc4c(n3)N(C)C(=O)N(c3cc(NC(=O)c5cccc(C(F)(F)F)c5)ccc3C)C4)cc2)CC1	HepG2 (FGFR4 overexpressing)	cell proliferation, CellTiter-Glo		72 h		GI50	342 ± 200 nM
O=C(N/N=C/c1ccc(Sc2ccccn2)s1)c1ccccc1Cl	D458 medulloblastoma	cell growth				GI50	2300 nM

Compound	target or system	test	system	conditions	scale	quantity	result
CCCCCCCCCCCCCC[C@@H](O)[C@@H](O)[C@H](CO[C@H]1O[C@H](CO)[C@H](O)[C@H](O)[C@H]1O)NC(=O)CCCCCCCc1ccc(-c2ccccc2)cc1	human Vα24+ NKT cells	agonist, ELISA		10 ng/mL, 24 h, unit not given, added: CD1d-transfected HeLa cells	reference: α-GalCer	IL-4 secretion	0.56 ± 0.04
CCOc1ccccc1Nc1nnc(SCC(=O)Nc2cc(F)ccc2F)s1	A549 spheroids with human PBMCs			25 µM, 48 h, added: soluble anti-CD3	reference: anti-CD3 alone	CD69 reduction	> 70%
COc1cc(Nc2ccnc3cc(C#N)ccc23)cc(OC)c1OC	HAP1	measured: unlabelled CoQ10		20 µM, short incubation		CoQ10 level	no effect
CCOc1ccc(S(=O)(=O)NC(=O)Cc2ccc(I)cc2)cc1Br	THP1-Dual	NF-κB reporter gene		100 µM, 16 h, added: ht-DNA transfection		inhibition	no effect
O=C(Nc1ccc([N+](=O)[O-])cc1)N[C@H](Cc1c[nH]c2ccccc12)C(=O)NCC1(c2ccccn2)CCCCC1	human neutrophils	chemotaxis, agonist				EC50	4300 nM
[N-]=[N+]=NCc1cc(N=[N+]=[N-])cc(C(=O)NCCCc2cc(C(=O)[O-])c[n+]([C@@H]3O[C@H](COP(=O)(O)OP(=O)(O)OC[C@H]4O[C@@H](n5cnc6c(N)ncnc65)[C@H](OP(=O)(O)O)[C@@H]4O)[C@@H](O)[C@H]3O)c2)c1	SK-BR-3 expressing TPC2	calcium release, microinjection		concentration not given	reference: TPC2 over non-transfected	peak calcium response	~5 fold
Cc1nn(C)c2c(C(C(=O)O)N3CC(OCCCCc4ccc5c(n4)NCCC5)C3)cccc12 (centres unmarked)	PAH PASMCs	Western blot, measured: PLK1, NEK2, p-β-catenin		concentration not given		protein level	decreased
CC[C@@H](C)[C@H](N)C(=O)N1Cc2ccc(F)cc2C1	THP-1	cell viability, CellTiter-Glo				IC50	500 nM
CN1CCN(c2cc(C(=O)Nc3ccc4c(c3)-c3c(c(C(N)=O)nn3-c3ccc(F)cc3)CC4)c(Cl)cn2)CC1	RA synovial fibroblasts	Western blot		concentration not given, 30 min pretreatment, IL-1β for 10 min, added: IL-1β 1 ng/mL		TAK-1 phosphorylation	no effect
Cc1ncsc1-c1ccc([C@H](C)NC(=O)[C@@H]2C[C@@H](O)CN2C(=O)[C@@H](NC(=O)CCCCCCC(=O)N2CCN(C[C@]3(C)CCC(c4ccc(Cl)cc4)=C(CN4CCN(c5ccc(C(=O)NS(=O)(=O)c6ccc(N[C@H](CCN7CCOCC7)CSc7ccccc7)c(S(=O)(=O)C(F)(F)F)c6)cc5)CC4)C3)CC2)C(C)(C)C)cc1			STAM mice NASH-HCC model, liver	day 150, treated days 90-150		HCC development	decreased
CCn1nccc1N=CC1=Cc2cc3c(cc2[C@@H](c2cc(OC)c(OC)c(OC)c2)[C@@H]1C(=O)OC)OCO3	Leishmania infantum	Alamar Blue	HepG2		reference: CC50 HepG2 over EC50 amastigotes	selectivity index	> 3.9
O=C1Nc2cccc(C#CC3(O)CCNCC3)c2/C1=C/c1cc2ccccc2[nH]1	Src-transformed 3T3 cells	time-lapse microscopy, measured: TKS5 vesicles		100 nM, 1 min	reference: total vesicles	motile vesicle fraction	6%
CCCCCCCCCCCCCC[C@@H](O)[C@@H](O)[C@H](CO[C@H]1O[C@H](CO)[C@H](O)[C@H](O)[C@H]1O)NC(=O)CCCCCCCCCc1ccccc1	human Vα24+ NKT cells	agonist		10 ng/mL, 24 h, added: CD1d-transfected HeLa cells	reference: α-GalCer	IFN-γ/IL-4 ratio	1.46 ± 0.15
CCN1CCN(c2ccc(Nc3ncc4c(n3)N(C)C(=O)N(c3cc(NC(=O)c5cccc(C(F)(F)F)c5)ccc3C)C4)cn2)CC1	Hep3B (FGFR4 overexpressing)	cell proliferation, CellTiter-Glo		72 h		GI50	139 ± 20 nM
CCCCCCCCCCCCCC[C@@H](O)[C@@H](O)[C@H](CO[C@H]1O[C@H](CO)[C@H](O)[C@H](O)[C@H]1O)NC(=O)CCCCCCCCCCc1ccc(F)cc1	human Vα24+ NKT cells	agonist, ELISA		10 ng/mL, 24 h, unit not given, added: CD1d-transfected HeLa cells	reference: α-GalCer	IL-4 secretion	0.81 ± 0.13
CCCCCCCCCCCCCCCCNNC(=O)c1ccc(N(C)C)cc1	HEK293T	immunoblot		up to 50 µM, 6 h		histone H3 acetylation	no effect
